Assay results of several laboratories.
Each line is one published result; not all experiments were run side by side.
Cdca7: Cdca7 241-382 (Mus musculus, UniProt Q9D0M2)
Chain of UniProt Q9D0M2 (whole entry, unmodified, looked up): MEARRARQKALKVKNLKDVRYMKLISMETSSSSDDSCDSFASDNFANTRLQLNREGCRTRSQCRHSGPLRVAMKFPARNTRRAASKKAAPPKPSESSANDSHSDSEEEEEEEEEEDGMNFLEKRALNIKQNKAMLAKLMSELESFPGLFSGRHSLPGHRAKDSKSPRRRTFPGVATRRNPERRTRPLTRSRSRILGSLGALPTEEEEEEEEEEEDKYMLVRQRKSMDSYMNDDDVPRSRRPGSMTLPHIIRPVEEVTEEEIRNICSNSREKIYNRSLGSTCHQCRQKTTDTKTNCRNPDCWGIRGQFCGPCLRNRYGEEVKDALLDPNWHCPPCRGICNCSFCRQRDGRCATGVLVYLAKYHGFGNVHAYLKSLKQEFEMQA
hfq full length assumed F42W: hfq full length assumed F42W (Escherichia coli, UniProt P0A6X3)
LYZ: LYZ 19-147 (Gallus gallus, UniProt P00698)
Chain of UniProt P00698 (whole entry, looked up): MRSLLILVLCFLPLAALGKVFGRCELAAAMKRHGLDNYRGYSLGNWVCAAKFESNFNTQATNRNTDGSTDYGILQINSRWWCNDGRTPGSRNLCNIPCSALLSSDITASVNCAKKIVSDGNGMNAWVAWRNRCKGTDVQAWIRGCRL
Survival motor neuron protein: Survival motor neuron protein 1-294 (Homo sapiens, UniProt Q16637)
Chain of UniProt Q16637 (whole entry, looked up): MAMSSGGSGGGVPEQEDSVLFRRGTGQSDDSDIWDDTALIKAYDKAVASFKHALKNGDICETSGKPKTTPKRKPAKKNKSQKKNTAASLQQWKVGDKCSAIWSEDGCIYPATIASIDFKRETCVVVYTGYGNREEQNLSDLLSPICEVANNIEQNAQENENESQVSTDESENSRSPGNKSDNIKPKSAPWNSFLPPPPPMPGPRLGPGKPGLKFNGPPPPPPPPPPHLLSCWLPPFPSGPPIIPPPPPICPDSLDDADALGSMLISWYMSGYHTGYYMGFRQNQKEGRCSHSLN
T1: MBNL1 ZF1-2/ZF3-4, N-terminal HA tag (Homo sapiens); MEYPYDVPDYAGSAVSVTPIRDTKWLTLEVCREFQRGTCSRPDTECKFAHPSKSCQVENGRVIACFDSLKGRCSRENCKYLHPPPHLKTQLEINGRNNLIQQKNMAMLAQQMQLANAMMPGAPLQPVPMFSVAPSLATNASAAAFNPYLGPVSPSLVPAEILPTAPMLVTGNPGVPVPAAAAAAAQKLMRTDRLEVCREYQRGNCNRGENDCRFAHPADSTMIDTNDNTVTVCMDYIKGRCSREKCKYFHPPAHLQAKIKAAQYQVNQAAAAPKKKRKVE
Chain of UniProt Q9UKA9 (whole entry, looked up): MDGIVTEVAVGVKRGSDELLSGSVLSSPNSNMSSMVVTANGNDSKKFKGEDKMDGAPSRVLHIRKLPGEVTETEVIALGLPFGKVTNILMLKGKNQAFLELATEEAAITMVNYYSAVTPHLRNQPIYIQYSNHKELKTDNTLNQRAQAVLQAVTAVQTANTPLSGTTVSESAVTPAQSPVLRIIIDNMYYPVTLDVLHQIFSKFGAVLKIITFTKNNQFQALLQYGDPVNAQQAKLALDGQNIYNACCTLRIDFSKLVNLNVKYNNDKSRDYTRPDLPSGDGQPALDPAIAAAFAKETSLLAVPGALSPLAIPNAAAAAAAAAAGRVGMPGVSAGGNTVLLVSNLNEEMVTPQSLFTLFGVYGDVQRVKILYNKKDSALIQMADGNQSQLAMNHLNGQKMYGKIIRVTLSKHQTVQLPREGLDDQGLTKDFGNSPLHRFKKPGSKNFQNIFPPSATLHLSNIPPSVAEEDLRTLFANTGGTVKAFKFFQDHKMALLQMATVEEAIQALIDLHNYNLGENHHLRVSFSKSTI
Chain of UniProt P00441 (whole entry, looked up): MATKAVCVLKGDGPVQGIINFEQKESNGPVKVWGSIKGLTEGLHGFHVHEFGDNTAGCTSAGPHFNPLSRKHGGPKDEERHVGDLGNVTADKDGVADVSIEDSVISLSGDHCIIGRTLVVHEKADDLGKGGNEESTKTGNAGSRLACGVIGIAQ
Chain of UniProt P16914 (whole entry, looked up): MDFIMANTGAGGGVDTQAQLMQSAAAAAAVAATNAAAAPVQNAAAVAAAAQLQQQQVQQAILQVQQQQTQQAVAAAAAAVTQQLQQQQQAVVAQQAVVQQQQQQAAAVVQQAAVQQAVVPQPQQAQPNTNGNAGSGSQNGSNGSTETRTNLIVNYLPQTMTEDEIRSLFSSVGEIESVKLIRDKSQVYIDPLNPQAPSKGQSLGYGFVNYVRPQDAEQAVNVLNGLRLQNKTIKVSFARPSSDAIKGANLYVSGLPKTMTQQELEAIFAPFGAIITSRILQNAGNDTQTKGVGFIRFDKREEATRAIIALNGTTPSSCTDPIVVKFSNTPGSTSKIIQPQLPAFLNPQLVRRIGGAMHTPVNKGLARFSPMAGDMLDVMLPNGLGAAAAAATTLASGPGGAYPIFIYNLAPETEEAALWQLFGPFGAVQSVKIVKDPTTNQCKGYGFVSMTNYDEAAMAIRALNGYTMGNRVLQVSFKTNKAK
Chain of UniProt Q8TEQ6 (whole entry, looked up): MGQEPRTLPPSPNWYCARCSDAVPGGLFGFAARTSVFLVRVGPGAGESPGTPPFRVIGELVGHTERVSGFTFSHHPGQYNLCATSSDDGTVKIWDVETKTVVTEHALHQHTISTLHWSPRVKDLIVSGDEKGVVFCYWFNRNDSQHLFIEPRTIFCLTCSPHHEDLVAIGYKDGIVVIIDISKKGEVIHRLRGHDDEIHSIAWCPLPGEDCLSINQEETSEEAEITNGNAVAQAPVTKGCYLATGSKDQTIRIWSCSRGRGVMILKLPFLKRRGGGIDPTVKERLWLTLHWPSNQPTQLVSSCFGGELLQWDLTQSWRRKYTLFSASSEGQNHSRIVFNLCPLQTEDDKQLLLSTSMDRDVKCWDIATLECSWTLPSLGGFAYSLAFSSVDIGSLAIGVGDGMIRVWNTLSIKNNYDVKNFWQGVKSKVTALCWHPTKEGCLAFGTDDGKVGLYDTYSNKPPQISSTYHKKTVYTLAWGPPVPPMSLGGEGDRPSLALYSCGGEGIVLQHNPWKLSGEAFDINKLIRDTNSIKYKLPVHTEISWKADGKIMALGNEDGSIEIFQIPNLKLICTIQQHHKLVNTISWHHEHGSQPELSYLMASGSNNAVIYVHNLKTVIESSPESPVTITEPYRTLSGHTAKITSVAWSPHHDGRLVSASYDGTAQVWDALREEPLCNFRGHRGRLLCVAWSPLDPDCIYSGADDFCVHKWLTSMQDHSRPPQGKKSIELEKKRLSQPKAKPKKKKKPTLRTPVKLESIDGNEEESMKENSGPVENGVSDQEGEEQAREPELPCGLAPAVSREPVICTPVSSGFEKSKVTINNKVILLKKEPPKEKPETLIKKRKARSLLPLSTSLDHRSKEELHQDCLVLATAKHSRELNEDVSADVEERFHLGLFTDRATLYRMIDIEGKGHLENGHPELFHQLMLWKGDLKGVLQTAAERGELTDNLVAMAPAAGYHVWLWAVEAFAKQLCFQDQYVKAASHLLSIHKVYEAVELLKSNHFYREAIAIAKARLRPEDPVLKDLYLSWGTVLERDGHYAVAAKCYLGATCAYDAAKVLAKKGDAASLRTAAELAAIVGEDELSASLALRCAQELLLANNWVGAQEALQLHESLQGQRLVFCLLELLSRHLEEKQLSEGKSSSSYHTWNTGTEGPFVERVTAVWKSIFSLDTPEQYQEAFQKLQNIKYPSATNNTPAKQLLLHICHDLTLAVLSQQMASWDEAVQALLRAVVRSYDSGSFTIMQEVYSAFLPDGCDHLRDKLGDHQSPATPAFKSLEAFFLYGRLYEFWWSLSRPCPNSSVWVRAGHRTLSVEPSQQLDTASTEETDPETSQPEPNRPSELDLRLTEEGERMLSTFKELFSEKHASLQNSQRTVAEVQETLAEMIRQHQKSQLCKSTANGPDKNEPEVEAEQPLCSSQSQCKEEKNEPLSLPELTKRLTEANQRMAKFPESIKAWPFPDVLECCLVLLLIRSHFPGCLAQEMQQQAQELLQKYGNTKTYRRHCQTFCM
Chain of UniProt P19525 (whole entry, unmodified, looked up): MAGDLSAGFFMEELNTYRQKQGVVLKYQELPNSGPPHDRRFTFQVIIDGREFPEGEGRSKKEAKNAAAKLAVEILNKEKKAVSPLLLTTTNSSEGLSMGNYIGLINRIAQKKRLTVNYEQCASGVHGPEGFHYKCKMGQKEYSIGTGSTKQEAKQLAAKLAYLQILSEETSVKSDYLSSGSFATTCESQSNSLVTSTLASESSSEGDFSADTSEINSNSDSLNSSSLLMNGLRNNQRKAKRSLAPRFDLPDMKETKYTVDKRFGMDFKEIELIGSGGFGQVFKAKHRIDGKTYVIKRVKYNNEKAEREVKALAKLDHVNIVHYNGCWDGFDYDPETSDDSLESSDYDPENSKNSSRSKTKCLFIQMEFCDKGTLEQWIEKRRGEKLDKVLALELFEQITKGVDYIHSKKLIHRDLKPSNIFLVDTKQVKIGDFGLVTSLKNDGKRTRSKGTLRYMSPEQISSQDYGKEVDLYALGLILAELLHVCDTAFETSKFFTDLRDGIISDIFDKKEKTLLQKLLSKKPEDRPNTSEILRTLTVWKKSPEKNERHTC
Chain of UniProt Q01130 (whole entry, looked up): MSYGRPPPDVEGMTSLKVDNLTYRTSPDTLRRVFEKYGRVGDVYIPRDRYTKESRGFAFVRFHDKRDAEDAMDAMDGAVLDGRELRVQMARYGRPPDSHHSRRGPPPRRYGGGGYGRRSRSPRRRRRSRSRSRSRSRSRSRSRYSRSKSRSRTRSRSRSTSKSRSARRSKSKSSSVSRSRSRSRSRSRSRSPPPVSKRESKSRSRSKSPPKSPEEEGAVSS
Chain of UniProt Q06609 (whole entry, looked up): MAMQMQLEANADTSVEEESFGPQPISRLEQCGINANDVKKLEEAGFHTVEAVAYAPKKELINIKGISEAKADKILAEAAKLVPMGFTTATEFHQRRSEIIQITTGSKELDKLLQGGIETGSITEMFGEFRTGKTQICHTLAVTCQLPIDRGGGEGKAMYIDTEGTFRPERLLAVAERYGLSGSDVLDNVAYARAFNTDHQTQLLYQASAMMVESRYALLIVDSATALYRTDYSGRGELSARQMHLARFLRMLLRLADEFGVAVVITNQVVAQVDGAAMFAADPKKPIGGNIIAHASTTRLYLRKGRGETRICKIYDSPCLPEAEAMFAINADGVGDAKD

Sequence	target	test	system	setting	binding
GATGCCCTGTCGGTGAGACCGTTTCATCG (ssDNA)	Cdca7	EMSA	single-stranded DNA	–	no binding
UUUUUAAUUGAUUACGUUCGCUUUUGUUUGAUUAUUGUUUUGG (ssRNA)	elav full length assumed (Drosophila melanogaster, UniProt P16914)	EMSA	RNA	–	binds
DNA 1 TGGCCAAAAAAGCATTGCTTATCAATTTGTAGCACC / DNA 2 TGGTGCTACAAATTGATAAGCAATGCTTTTTTGGCC (dsDNA; 5' T overhangs)	IHF alpha/IHF beta (Escherichia coli)	FRET, laser T-jump	double-stranded DNA	KCl 100 mM	binds
GCGACGCCCTGTCGGTGAGAAACCGTTTGCGTCGC (DNA; non-B structure)	Cdca7	EMSA	folded DNA	–	binds
CCCUCUGUCCCGGAGCCCGCAGAUCGCGACCCAGAGCGCGCGGGGCCGAGAGCCGAGAGACAGUCCCGGGCGCAGCGCGGAGCUCCGGGCCCCGAGAUCC (structured RNA)	PTBP2 full length assumed (Homo sapiens, UniProt Q9UKA9)	EMSA	folded RNA	–	no binding
GAAACGGGACGGCACCUCUUUUAACCCUUGAAGUCACUGCCCGUUUCGAGAGUUUCUCAACUCGAAUAACUAAAGCCAACGUGAACUUUUGCGGAUCUCCAGGAUCCGCUUUUUUUU (structured RNA)	hfq full length assumed F42W	tryptophan fluorescence quenching	folded RNA	–	binds
GGGCUAAAGAGUGCAGAGUUACUUAGUUCACUGCAGACUUGACGAAGCUU (structured RNA)	LYZ	filter binding	folded RNA	–	no binding
GCAGCCCAUGAUGGCUGAAUCCGAAAUCCUCGAUGGGUCCAGCUUGAUGUCUUUGCAGC (structured RNA)	SECISBP2 344-854 I535S/I536V/L537R/K538V/E539Y (Homo sapiens, UniProt Q96T21)	EMSA	folded RNA	–	no binding
AGGGGGCCGUGGGGUGGGAGCUGGGG (G-quadruplex RNA; G4)	ILF3 1-894 (Homo sapiens, UniProt Q12906)	EMSA	folded RNA	100 nM	binds
DNA 1 TGGCCAAAAAAGCATTGCTTATCAATTTGTTGCACC / DNA 2 TGGTGCAACAAATTGATAAGCAATGCTTTTTTGGCC (dsDNA; 5' T overhangs)	IHF alpha/IHF beta K84A (Escherichia coli)	FRET, laser T-jump	double-stranded DNA	KCl 100 mM	binds
CGAGGAACATGTCCCAACATGTTGCTCGAG (dsDNA)	TP53 fragment (Homo sapiens)	EMSA	double-stranded DNA, one strand shown	–	binds
AAUUUUUGA (ssRNA)	GEMIN5 1-726 (Homo sapiens, UniProt Q8TEQ6)	EMSA	RNA	two shifted bands	binds
CAACGCCCTGTCGGTGAGAAACCGTTTGCA (DNA; hairpin)	Cdca7 241-382 R285H (Mus musculus, UniProt Q9D0M2)	EMSA	folded DNA	–	no binding
GAAACGGGACGGCACCUCUUUUAACCCUUGAAGUCACUGCCCGUUUCGAGAGUUUCUCAACUCGGCCAACGUGAACUUUUGCGGAUCUCCAGGAUCCGCUUUUUUUU (structured RNA)	hfq full length assumed F42W	tryptophan fluorescence quenching	folded RNA	–	binds
DNA 1 GTCGACCAGCTGAGTCGACCAGCTG / DNA 2 CAGCTGGTCGAC / DNA 3 CAGCTGGTCGAC (dsDNA; nicked, N6-methyl-dA)	YTHDC2 1268-1430 (Homo sapiens, UniProt Q9H6S0)	pull-down	double-stranded DNA	–	no binding
GGGCUCACCACGCACGUGCGGGCUUGCUCGUGGGGUUGGCCCUCACCACGGCAAGCU (structured RNA)	Survival motor neuron protein	competition	folded RNA	almost no effect	binds

Sequence	target	test	system	setting	binding
RNA 1 GGAGGAUGUUAAUUGGCGUGUCUUGUCUGCAACGGUAUUC / RNA 2 GAAUACCGUUGCAGACAAGACACGCCAAUUAACAUCCUCC (dsRNA)	EIF2AK2 1-185 F131W/R107A (Homo sapiens, UniProt P19525)	tryptophan fluorescence anisotropy	double-stranded RNA	1 µM	binds
CAACGCCCTGTCGGTGAGAAACCGTTTGCA (dsDNA)	Cdca7	EMSA	double-stranded DNA, one strand shown	–	no binding
ATGTGTTAGTTGGGGGGTGACTGTTAAAAGTGCATACCGCCAAAAGATAAAATTTGAAATCTG (dsDNA; 2-aminopurine at -1 non-template)	POLRMT/TFAM 43-1230; 43-245 (Homo sapiens)	2-AP fluorescence	double-stranded DNA, one strand shown	–	binds
GUGGUCAGUCGAGUGG (ssRNA; unstructured)	hfq full length assumed S38W (Escherichia coli, UniProt P0A6X3)	tryptophan fluorescence quenching	RNA	–	binds
DNA 1 GATGCCCTGTCGGTGAGACCGTTTCATCG / DNA 2 CGATGCCTGTCGGTGAGACCGTTTGCATC (DNA; annealed oligos)	Cdca7	EMSA	folded DNA	–	binds
CGGGTGTCGGGGCTGGCTTAACTATGCGGCATCAGAGCAGATTGTACTGAGAGTGCACCATATGCGGTGTGAAATACCGCACAGATGCGT (ssDNA)	RAD51 full length assumed (Homo sapiens, UniProt Q06609)	filter binding	single-stranded DNA	–	binds
TGTGATAGCGTGATTTATCGCGCTGCGTTAGGTGTATAGCAG (ssDNA)	traI 1-299 Y18F/Y19F/Y26F/Y27F (Escherichia coli, UniProt Q9X4G2)	fluorescence anisotropy	single-stranded DNA	no added metal	binds
RNA 1 GGAGGAUGUUAAUUGGCGUG / RNA 2 CACGCCAAUUAACAUCCUCC (dsRNA)	EIF2AK2 1-185 F131W (Homo sapiens, UniProt P19525)	tryptophan fluorescence anisotropy	double-stranded RNA	–	binds
GGGUUCAUCAGGGCUAAAGAGUGCAGAGUUACUUAGUUCACUGCAGACUUGACGAAGCUU (structured RNA)	LYZ	filter binding	folded RNA	–	binds
GCUGCUGUUCGCUGCUG (ssRNA; hairpin)	T1, MBNL1 ZF1-2/ZF3-4, N-terminal HA tag (Homo sapiens)	EMSA	folded RNA	–	binds
CTTTTTTTTATAACCGACATTACAAGTCTC (dsDNA)	Ethylene Responsive Factor ERF2 (Pyrus ussuriensis, UniProt A0A4D5XF43)	EMSA	double-stranded DNA, one strand shown	with: unlabeled competitor	binds
DNA 1 GCTGATCAACGCCCTGTCGGTGAGACTAGTACATG / DNA 2 CATGTACTAGTCGAACCGTTTGCGTTGATCAGC (DNA; 5mC on both stem CpGs)	Cdca7	EMSA	folded DNA	–	no binding
GGGAUCCGACUCCAUGAAAGGAAAAGGCACCCGAGAUAAAGUCCUGAUCAGAAUCAUGGUCUCCAAGCU (structured RNA)	Survival motor neuron protein	competition	folded RNA	complete loss	no binding
AAAAAAAAAAAA (dsDNA 12 bp duplex)	SOD1 2-154 (Homo sapiens, UniProt P00441)	EMSA	double-stranded DNA, one strand shown	–	no binding
AGGCGAGUAGGGUAUGCUG (ssRNA)	SRSF2 full length assumed (Homo sapiens, UniProt Q01130)	UV cross-linking	RNA, S100	400 nM	binds

Repeated from above:
Sequence	target	test	system	setting	binding
CGGGTGTCGGGGCTGGCTTAACTATGCGGCATCAGAGCAGATTGTACTGAGAGTGCACCATATGCGGTGTGAAATACCGCACAGATGCGT (ssDNA)	RAD51 full length assumed (Homo sapiens, UniProt Q06609)	filter binding	single-stranded DNA	–	binds
TGTGATAGCGTGATTTATCGCGCTGCGTTAGGTGTATAGCAG (ssDNA)	traI 1-299 Y18F/Y19F/Y26F/Y27F (Escherichia coli, UniProt Q9X4G2)	fluorescence anisotropy	single-stranded DNA	no added metal	binds
RNA 1 GGAGGAUGUUAAUUGGCGUG / RNA 2 CACGCCAAUUAACAUCCUCC (dsRNA)	EIF2AK2 1-185 F131W (Homo sapiens, UniProt P19525)	tryptophan fluorescence anisotropy	double-stranded RNA	–	binds
